Published values collected from several papers.
Protocols differ between the studies behind these lines. Numbers after ± are the reported error.
Chain of UniProt Q14790 (whole entry, looked up): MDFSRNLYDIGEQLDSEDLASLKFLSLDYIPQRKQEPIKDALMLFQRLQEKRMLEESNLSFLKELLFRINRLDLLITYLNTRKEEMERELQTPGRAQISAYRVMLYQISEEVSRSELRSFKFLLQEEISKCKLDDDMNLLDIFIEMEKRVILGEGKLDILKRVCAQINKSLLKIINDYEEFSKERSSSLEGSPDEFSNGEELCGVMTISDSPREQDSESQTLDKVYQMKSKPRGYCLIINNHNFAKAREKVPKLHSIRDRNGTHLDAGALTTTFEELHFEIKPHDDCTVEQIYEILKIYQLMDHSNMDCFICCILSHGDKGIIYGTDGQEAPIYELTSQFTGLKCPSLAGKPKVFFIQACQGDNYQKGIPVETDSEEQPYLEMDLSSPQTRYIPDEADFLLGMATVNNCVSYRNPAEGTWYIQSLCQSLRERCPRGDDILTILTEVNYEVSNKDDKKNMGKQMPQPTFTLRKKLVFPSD
Chain of UniProt Q07820 (whole entry, looked up): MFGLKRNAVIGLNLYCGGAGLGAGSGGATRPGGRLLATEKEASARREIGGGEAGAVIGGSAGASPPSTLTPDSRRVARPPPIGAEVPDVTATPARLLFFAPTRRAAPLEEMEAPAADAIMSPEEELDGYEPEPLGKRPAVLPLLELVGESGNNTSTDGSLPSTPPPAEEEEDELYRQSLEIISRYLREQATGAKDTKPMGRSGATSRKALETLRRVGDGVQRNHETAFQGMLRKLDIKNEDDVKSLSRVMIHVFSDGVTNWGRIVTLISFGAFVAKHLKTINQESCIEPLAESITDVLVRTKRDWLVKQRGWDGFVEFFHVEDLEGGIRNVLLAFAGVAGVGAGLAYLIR
Chain of UniProt P28335 (whole entry, looked up): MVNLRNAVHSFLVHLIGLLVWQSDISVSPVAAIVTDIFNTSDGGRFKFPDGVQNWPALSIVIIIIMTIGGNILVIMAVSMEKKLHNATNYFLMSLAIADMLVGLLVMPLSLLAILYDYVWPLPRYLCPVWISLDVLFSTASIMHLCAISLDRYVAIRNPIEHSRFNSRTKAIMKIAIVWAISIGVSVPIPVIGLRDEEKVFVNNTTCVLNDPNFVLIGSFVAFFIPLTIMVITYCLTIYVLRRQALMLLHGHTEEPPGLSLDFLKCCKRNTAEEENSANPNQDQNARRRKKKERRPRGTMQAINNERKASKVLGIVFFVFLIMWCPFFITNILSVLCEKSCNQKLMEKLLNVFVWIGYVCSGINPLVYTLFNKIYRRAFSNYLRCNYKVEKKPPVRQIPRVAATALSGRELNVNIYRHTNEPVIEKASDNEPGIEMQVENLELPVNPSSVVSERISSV
Chain of UniProt Q9UQL6 (whole entry, looked up): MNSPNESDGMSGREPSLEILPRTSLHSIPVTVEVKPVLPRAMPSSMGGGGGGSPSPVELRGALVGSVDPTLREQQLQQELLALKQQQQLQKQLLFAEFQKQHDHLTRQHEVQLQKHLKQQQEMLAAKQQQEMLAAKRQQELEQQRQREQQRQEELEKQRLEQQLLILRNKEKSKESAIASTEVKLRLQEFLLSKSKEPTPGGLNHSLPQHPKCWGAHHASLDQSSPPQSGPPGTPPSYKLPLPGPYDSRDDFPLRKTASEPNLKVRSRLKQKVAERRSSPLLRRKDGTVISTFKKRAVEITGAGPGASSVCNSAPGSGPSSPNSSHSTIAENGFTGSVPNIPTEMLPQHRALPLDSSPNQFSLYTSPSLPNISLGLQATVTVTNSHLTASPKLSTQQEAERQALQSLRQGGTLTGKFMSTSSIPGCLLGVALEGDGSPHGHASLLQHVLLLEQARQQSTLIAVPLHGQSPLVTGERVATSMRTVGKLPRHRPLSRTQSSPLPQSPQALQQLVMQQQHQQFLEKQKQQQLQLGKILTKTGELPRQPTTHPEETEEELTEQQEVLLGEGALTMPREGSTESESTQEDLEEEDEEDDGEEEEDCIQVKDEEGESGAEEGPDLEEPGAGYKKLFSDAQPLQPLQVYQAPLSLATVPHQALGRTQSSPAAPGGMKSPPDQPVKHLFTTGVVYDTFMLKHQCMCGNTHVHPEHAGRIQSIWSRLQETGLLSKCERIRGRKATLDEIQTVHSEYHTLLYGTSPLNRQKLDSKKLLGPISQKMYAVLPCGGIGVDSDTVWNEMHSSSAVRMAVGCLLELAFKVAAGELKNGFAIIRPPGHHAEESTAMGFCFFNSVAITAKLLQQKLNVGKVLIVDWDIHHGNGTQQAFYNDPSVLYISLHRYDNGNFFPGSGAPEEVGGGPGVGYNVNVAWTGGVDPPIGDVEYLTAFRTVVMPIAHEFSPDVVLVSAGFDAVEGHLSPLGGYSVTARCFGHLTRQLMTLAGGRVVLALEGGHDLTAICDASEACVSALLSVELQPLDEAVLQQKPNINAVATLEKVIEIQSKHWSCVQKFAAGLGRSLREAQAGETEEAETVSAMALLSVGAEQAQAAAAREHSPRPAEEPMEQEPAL
Chain of UniProt P00156 (whole entry, looked up): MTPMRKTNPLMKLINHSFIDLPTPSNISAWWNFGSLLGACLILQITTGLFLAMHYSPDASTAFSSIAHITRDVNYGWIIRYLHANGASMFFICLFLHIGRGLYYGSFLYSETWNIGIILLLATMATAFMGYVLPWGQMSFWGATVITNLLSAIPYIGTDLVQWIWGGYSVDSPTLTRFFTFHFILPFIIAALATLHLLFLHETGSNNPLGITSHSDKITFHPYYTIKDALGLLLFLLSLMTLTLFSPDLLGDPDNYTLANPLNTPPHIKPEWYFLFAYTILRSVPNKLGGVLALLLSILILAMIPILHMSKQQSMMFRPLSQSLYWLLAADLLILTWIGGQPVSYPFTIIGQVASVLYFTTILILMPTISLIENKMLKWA
Chain of UniProt P42330 (whole entry, looked up): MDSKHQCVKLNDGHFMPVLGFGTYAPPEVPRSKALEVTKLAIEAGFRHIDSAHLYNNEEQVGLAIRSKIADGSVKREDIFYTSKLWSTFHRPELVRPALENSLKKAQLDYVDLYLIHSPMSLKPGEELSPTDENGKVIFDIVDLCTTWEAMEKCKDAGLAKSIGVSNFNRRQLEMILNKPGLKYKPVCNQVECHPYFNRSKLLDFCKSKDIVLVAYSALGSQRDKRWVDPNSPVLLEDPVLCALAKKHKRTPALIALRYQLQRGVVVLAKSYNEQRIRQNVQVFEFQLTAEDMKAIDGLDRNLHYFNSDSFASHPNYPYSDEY
Chain of UniProt P10635 (whole entry, looked up): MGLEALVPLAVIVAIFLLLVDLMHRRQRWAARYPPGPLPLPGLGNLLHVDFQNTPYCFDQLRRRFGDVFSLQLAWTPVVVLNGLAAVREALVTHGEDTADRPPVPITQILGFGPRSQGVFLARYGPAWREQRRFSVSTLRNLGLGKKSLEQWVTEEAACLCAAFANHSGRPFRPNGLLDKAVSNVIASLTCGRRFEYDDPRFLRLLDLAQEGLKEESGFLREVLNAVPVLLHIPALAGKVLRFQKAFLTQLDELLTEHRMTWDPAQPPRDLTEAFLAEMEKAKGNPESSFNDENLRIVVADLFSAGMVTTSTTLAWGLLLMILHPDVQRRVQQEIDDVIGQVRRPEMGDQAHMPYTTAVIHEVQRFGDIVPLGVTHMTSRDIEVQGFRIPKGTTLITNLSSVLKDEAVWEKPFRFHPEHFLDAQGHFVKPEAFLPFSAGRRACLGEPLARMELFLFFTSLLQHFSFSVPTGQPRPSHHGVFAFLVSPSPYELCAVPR
Chain of UniProt P28336 (whole entry, looked up): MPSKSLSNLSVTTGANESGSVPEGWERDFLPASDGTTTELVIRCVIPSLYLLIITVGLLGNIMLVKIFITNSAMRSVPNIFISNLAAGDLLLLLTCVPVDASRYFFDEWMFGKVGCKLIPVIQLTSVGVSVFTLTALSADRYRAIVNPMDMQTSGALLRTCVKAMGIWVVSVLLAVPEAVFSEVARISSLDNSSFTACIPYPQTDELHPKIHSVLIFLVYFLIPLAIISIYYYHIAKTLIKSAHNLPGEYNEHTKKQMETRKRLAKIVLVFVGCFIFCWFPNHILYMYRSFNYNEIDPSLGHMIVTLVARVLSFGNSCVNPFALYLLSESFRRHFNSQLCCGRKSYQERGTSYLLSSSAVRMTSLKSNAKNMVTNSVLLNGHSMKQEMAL

Compound | target | assay | conditions | IC50
O=C1c2ccccc2[Se](=O)N1c1ccccc1 (stereo not drawn) | HDAC5 (Homo sapiens, UniProt Q9UQL6) | enzyme activity, inhibitor, fluorescence | – | 1490 nM
O=C(N1CCOCC1)N1CCN(c2ccc(Cl)cc2)CC1 | AKR1C3 (Homo sapiens, UniProt P42330) | diaphorase activity | with: PQ | 68 nM
CSCC[C@H](NC(=O)[C@H](Cc1ccccc1)NC(=O)[C@H](Cc1c[nH]cn1)NC(=O)CNC(=O)[C@@H](NC(=O)[C@H](C)NC(=O)[C@H](Cc1c[nH]c2ccccc12)NC(=O)[C@H](CCC(N)=O)NC(=O)[C@@H]1CCCN1C(=O)CNC(=O)CNC(=O)CNC(=O)[C@@H]1CCC(=O)N1)C(C)C)C(N)=O | NMBR (Homo sapiens, UniProt P28336) | NMBR activity, cell-based | – | < 1 nM
CCCCCc1cc(O)c2c(c1)OC(C)(C)C1CCC(C(=O)OC3OC(C(=O)O)C(O)C(O)C3O)=CC21 (stereo not drawn) | Cytochrome P450 2D6 (CYP2D6, Homo sapiens, UniProt P10635) | inhibitor | 30 min preincubation, with: NADPH | 6400 ± 2500 nM
N#Cc1cn([C@@H]2O[C@H](CSCC[C@H](N)C(=O)O)[C@@H](O)[C@H]2O)c2ncnc(N)c12 | DNA (cytosine-5)-methyltransferase 3A, with DNMT3L (DNMT3A, Homo sapiens, UniProt Q9Y6K1) | inhibitor | – | 100 ± 2 nM
CN(C)CCCOc1ccc(C2Sc3ccccc3NC3=C2C(=O)c2ccccc23)cc1 (racemic) | Cytochrome b (MT-CYB, Homo sapiens, UniProt P00156) | enzyme activity, inhibitor | – | > 5000 nM
CC(=O)N[C@@H](CC(C)C)C(=O)N[C@@H](CCC(=O)O)C(=O)N[C@@H](CO)C(=O)N[C@@H](CC(=O)O)C(=O)CCl | Caspase-8 (CASP8, Homo sapiens, UniProt Q14790) | enzyme activity, inhibitor, fluorescence | – | 50 nM
C/C=C1/CN2CCc3c([nH]c4ccccc34)[C@@H]2C[C@@H]1/C(=C\OC)C(=O)OC | HTR2C (Homo sapiens, UniProt P28335) | ligand displacement, radioligand | cell membranes | 1480 nM
CC[C@H](C)[C@@H]1NC(=O)[C@H](CCCNC(=N)N)NC(=O)[C@H](CCCNC(=N)N)NC(=O)[C@H](CC(C)C)NC(=O)[C@@H](NC(=O)[C@H](C)NC(=O)[C@H](C)NC(C)=O)CSCc2ccc3c(ccc4cc(ccc43)CSC[C@@H](C(=O)N[C@H](C(=O)N[C@@H](CC(N)=O)C(=O)N[C@@H](CC(C)C)C(=O)N[C@@H](CCCNC(=N)N)C(=O)N[C@@H](CCC(N)=O)C(=O)N[C@@H](CCCCN)C(=O)N[C@@H](CC(C)C)C(=O)N[C@@H](CC(C)C)C(=O)N[C@@H](CC(N)=O)C(N)=O)C(C)C)NC(=O)[C@H](CC(=O)O)NC(=O)CNC1=O)c2 | MCL1 (Homo sapiens, UniProt Q07820) | ligand displacement, FP | – | 71 nM

For quick reference, copied from above:
Compound | target | assay | conditions | IC50
N#Cc1cn([C@@H]2O[C@H](CSCC[C@H](N)C(=O)O)[C@@H](O)[C@H]2O)c2ncnc(N)c12 | DNA (cytosine-5)-methyltransferase 3A, with DNMT3L (DNMT3A, Homo sapiens, UniProt Q9Y6K1) | inhibitor | – | 100 ± 2 nM
